Published values of several laboratories.
Numbered parts are unrelated; each lists some results of a single study.

Series 1
Target: Prothrombin, mature alpha-thrombin (F2, Homo sapiens, UniProt P00734)
Method: aptamer microarray, sandwich
Form: DNA with 2'F-ANA
Medium: in vitro
Concentration: 200 nM
Notes: whole 15-mer aptamer, many near background
Added: Cy3 exosite-II aptamer, 400 nM
Direction: higher = stronger binding
Endpoint: mean fluorescence intensity
Sequence = GGTTGGTGTGGTTGG (2'F-ANA at 1 2 5 6 7 10 11 12 14); result = 49.4 a.u.
Sequence = GGTTGGTGTGGTTGG (2'F-ANA at 2 4 6 11 12 13 14); result = 88.5 a.u.
Sequence = GGTTGGTGTGGTTGG (2'F-ANA at 4 5 6 10 11 12 13 14 15); result = 47.2 a.u.

Series 2
Target: Sal-like protein 4, full length isoform A (SALL4, Homo sapiens, UniProt Q9UJQ4, residues 1-1053)
Sequence of UniProt Q9UJQ4 (whole entry, looked up): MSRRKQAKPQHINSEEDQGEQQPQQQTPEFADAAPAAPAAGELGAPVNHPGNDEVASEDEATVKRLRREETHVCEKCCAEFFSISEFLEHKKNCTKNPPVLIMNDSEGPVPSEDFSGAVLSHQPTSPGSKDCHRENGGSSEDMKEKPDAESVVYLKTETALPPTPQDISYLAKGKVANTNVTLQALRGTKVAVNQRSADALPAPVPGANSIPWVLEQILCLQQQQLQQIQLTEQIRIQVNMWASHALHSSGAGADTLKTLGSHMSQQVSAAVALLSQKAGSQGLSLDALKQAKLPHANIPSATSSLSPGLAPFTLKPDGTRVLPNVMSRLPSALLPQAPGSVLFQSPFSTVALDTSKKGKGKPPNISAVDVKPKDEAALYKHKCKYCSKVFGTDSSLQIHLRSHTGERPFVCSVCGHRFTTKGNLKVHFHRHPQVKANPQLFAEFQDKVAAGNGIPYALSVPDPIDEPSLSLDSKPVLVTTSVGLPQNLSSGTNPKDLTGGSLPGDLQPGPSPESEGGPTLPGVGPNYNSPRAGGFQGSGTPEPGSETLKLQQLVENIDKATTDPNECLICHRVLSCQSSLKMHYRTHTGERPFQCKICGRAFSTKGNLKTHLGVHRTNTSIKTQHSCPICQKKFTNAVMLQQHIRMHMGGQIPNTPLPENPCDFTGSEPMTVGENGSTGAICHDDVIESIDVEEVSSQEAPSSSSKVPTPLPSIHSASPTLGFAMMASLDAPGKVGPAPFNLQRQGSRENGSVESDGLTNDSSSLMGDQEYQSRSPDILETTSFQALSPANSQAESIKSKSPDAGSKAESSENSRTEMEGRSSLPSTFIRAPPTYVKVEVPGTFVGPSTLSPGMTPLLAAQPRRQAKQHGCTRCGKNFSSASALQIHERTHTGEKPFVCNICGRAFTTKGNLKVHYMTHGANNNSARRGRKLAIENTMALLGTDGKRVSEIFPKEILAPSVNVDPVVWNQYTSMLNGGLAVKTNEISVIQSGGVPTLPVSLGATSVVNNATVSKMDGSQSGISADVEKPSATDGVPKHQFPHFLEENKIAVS
Method: universal PBM
Form: double-stranded DNA, one strand shown
Medium: in vitro
Concentration: 600 nM
Notes: 8-mer, flanks averaged, mean of replicates
Direction: higher = stronger binding
Endpoint: E-score
Sequence = CCACATAG; result = -0.175
Sequence = AAGAAAAT; result = 0.319
Sequence = CGTGGAGC; result = -0.125
Sequence = ACCGGGTA; result = -0.256

Series 3
Target: Phosphate system positive regulatory protein PHO4, full length, GST-tagged (PHO4, Saccharomyces cerevisiae, UniProt P07270, residues 1-312)
Method: competition protein-binding microarray
Form: double-stranded DNA, one strand shown
Medium: in vitro
Concentration: 2 µM
Notes: whole 60-bp probe, lowest competitor level
Added: Cbf1 competitor, 0.05 µM
Direction: higher = stronger binding
Endpoint: fluorescence intensity
Target sequence (chain): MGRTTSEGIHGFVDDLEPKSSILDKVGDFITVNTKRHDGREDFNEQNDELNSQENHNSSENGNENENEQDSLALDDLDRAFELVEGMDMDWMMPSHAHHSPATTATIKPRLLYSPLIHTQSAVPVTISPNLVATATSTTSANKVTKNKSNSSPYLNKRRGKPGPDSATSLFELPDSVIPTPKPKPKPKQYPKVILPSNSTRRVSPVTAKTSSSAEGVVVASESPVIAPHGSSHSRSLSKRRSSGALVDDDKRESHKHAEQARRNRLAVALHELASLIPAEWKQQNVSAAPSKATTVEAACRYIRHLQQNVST
Sequence = CTTTTGCATCCGAGCCTCCTGGATAATAACTTCAATGTCTTGATTCGCTTGACGCTGCTG; result = 3250 a.u.
Sequence = GCTGCAAGATTAGTCTATGTGACGGTGCCTTTTTTGGTCTTGATTCGCTTGACGCTGCTG; result = 3680 a.u.
Sequence = TAACTGGTTCAGAAACACGTTCCAACAATGGCTTGAGTCTTGATTCGCTTGACGCTGCTG; result = 10900 a.u.
Sequence = CTTTCCCGATCTTTTCACGTGCATTTAGCACATTTGGTCTTGATTCGCTTGACGCTGCTG; result = 15200 a.u.

Mixed results
Molecule = PhoQ, residues 284 288 289 292 302 303 HSSMNL; target = PhoP, residues 12 14 15 18 19 SPWRL (Escherichia coli, UniProt P23836); test = Sort-seq, item: YFP reporter; test system = E. coli; setting = PhoQ-PhoP variant library, added: 10 µM Mg2+; scale = baseline: high Mg2+ state, higher = stronger signaling; endpoint = fold induction; result = 1.14

For quick reference, copied from above (series 1):
Sequence = GGTTGGTGTGGTTGG (2'F-ANA at 1 2 5 6 7 10 11 12 14); result = 49.4 a.u.
Sequence = GGTTGGTGTGGTTGG (2'F-ANA at 2 4 6 11 12 13 14); result = 88.5 a.u.
